# Measurements gathered from unrelated publications.
# ± gives the spread as reported.
Compound,cell line,assay,test system,setting,scale,quantity,value
Cn1cc2c(n1)CN(C(=O)Nc1nc(-c3ccc(F)cc3)ccc1N)C2,human bone marrow CFU-GM progenitors,,,"10 µM, 14 days",baseline: untreated control,colony formation,30%
COc1cc(/C=C/C(=O)O)ccc1O,BV-2,MTT,,5 and 10 µM,,cytotoxicity,not toxic
CCCCCCCCCCCC(=O)Nc1ccccc1SSc1ccccc1NC(=O)CCCCCCCCCCC,HaCaT,"cell growth or viability, MTT",,"10 mg/mL, 24 h",,viability,100%
CCCC[C@H](NC(=O)[C@H](CC(=O)O)NC(=O)[C@H](CC(=O)O)NC(=O)[C@H](CCC(=O)O)NC(=O)[C@H](Cc1ccc(O)cc1)NC(=O)[C@H](CC(=O)O)NC(=O)[C@H](CC(=O)O)NC(=O)[C@H](CCC(=O)O)NC(=O)[C@H](CC(C)C)NC(=O)[C@H](CCC(=O)O)NC(=O)[C@H](CCC(=O)O)NC(=O)c1ccc2c(c1)C1(OC2=O)c2ccc(O)cc2Oc2cc(O)ccc21)C(=O)N[C@@H](CCC(=O)O)C(=O)N[C@@H](CCC(=O)O)C(N)=O,primary human airway epithelial cells,"intracellular degradation, CE-LIF",,"22 µM, 37 °C, microinjected",,median half-life,28 min
CCOC(=O)c1cc2c(N)c(C(=O)OC)sc2nc1C,UT-B knockout mouse erythrocytes,osmotic lysis,,concentration not given,,urea permeability,no effect
CC(=O)N[C@H](C(=O)N[C@H](C(=O)N[C@@H](CCCNC(=N)N)C(=O)N1Cc2ccccc2C[C@H]1C(=O)N[C@@H](Cc1ccccc1)C(N)=O)C1CCCCC1)C(C)C,human PBMC,"Bio-Plex multiplex, item: IL-17",,"500 µg/mL, 24 h",,cytokine level,4.3 ± 3.1 pg/mL
O=c1ccn(CCCCCOc2ccc(Br)cc2)c(=O)n1Cc1ccccc1,HEL,cell growth or viability,,,,CC50,> 100 µM
CN(C)c1cc(CNC2CCCC2)c(O)c2c1C[C@H]1C[C@H]3[C@H](N(C)C)C(O)=C(C(N)=O)C(=O)[C@@]3(O)C(O)=C1C2=O,COS,"cytotoxicity, resazurin",,10% fetal calf serum,,TC50,> 100 µg/mL
O=c1ccn(CCCCCOc2ccc(Br)cc2)c(=O)n1Cc1ccc2ccccc2c1Br,HEL,cell morphology,,,,minimum cytotoxic concentration,100 µM
CN(C)c1cc(CNCCC(C)(C)C)c(O)c2c1C[C@H]1C[C@H]3[C@H](N(C)C)C(O)=C(C(N)=O)C(=O)[C@@]3(O)C(O)=C1C2=O,COS,"cytotoxicity, resazurin",,10% fetal calf serum,,TC50,> 100 µg/mL
Cc1[nH]c2ccccc2c1CCNC(=O)c1ccccc1F,SKOV,,,up to 80 µM,,mitotic index,no effect
CC(C)=CCCC(C)C1CCC2(C)C3=C(CCC12C)C1(C)CCC(=O)C(C)(C)C1CC3 (stereo not drawn),MCF7,"cell growth or viability, SRB",,50 µM,,inhibition,1.5%
CCCCCCCCCCCCCC(=O)Nc1ccccc1SSc1ccccc1NC(=O)CCCCCCCCCCCCC,HaCaT,"cell growth or viability, MTT",,"10 mg/mL, 24 h",,viability,100%
COc1cc(O)c(-c2c(O)cc(OC)c3c2ccc2cc(O)ccc23)c2ccc3ccccc3c12,BV-2,"cell growth or viability, MTT",,"10 µM, 24 h",,viability,98.3%
O=C(O)COc1cc2c(OCC(=O)O)cc1Cc1cc(OCC(=O)O)c(cc1OCC(=O)O)Cc1cc(OCC(=O)O)c(cc1OCC(=O)O)Cc1cc(OCC(=O)O)c(cc1OCC(=O)O)Cc1cc(OCC(=O)O)c(cc1OCC(=O)O)Cc1cc(OCC(=O)O)c(cc1OCC(=O)O)C2,MC3T3-E1,CCK-8,,"500 µM, 24 h",,viability,> 90%
CC(=O)OC[C@H]1O[C@@H](Sc2sc(C(=O)c3ccc(C)cc3)c(N)c2-c2nc3ccccc3s2)[C@H](OC(C)=O)[C@@H](OC(C)=O)[C@@H]1OC(C)=O,Huh7.5,cytotoxicity,,72 h,,maximum non-toxic concentration,90 µg/mL
CC(=O)O[C@H]1CC[C@]2(C)C3=C(CC[C@H]2C1(C)C)[C@@]1(C)CC[C@@H]([C@H](C)CCC=C(C)C)[C@]1(C)CC3,MCF7,"cell growth or viability, SRB",,50 µM,,inhibition,20.1%
CN(C)c1cc(CN2CCCCC2)c(O)c2c1C[C@H]1C[C@H]3[C@H](N(C)C)C(O)=C(C(N)=O)C(=O)[C@@]3(O)C(O)=C1C2=O,COS,"cytotoxicity, resazurin",,10% fetal calf serum,,TC50,> 100 µg/mL
CCCCn1cc(C(=O)O)c(=O)c2cc(F)c3c(nnn3-c3ccccc3OC)c21,MCF7,"cell growth or viability, SRB",,,,IC50,77.6 µM
Cc1ccc(S(=O)(=O)Nn2c3c(cc(-c4nc5ccccc5s4)c2=O)CCCC3)cc1,Huh7.5,trypan blue,,72 h,,maximum non-toxic concentration,130 µg/mL
CC(=O)O[C@@H]1[C@@H](OC(C)=O)[C@H](Sc2sc(C(=O)c3ccc(C)cc3)c(N)c2-c2nc3ccccc3s2)OC[C@H]1OC(C)=O,Huh7.5,cytotoxicity,,72 h,,maximum non-toxic concentration,90 µg/mL
C#CCOc1ccc(C(=O)c2ccc(NC(=O)C(=O)NCCc3ccc(OC)cc3)cc2)cc1,H2122,,H2122 cells,"100 nM, 24 h",,compound remaining decrease,52%
Nc1c(C(=O)c2ccc(Br)cc2)sc(S)c1-c1nc2ccccc2s1,Huh7.5,cytotoxicity,,72 h,,maximum non-toxic concentration,100 µg/mL
O=C(CC1CC=CCCC(=O)OC(c2ccccc2)CNC1=O)NCc1ccc(Cl)cc1 (stereo not drawn),Shh Light2,CellTiter-Glo,,,cytotoxic above value,cytotoxic concentration,> 15.6 µM
O=c1ccn(CCCCCOc2ccc(Br)cc2)c(=O)n1Cc1c2ccccc2cc2ccccc12,HEL,cell morphology,,,,minimum cytotoxic concentration,20 µM
CCCC[C@H](C)/C=C(C)/C=C/C(=O)O,HEK-293T,MTT,serum-free medium,"0.1 to 30 µM tested, 24 h",,highest non-toxic concentration,≤ 3 µM
Cc1nc([C@@H](NC(=O)c2ccc(-c3ccc(Cl)cc3)[nH]2)[C@@H]2CCCCN2)sc1CO,U87.CD4.CXCR4,"cell growth or viability, XTT",,,,CC50,~28 µM
"C=C1C(=O)C23CCC4C(C)(C)CCCC4(C)C2C(O)CC1C3 (single isomer, unassigned)",HL-7702,MTT,,concentration not given,baseline: A549 cells,cytotoxicity,decreased
CCCCCCCCCCCCCCCC(=O)NCCCC[C@H](NC(=O)[C@H](CCCNC(=N)N)NC(=O)[C@H](CCCCNC(=O)CCCCCCCCCCCCCCC)NC(C)=O)C(=O)O,CCRF-CEM,flow cytometry,,"50 µM, 2 h, 37 °C, serum-free medium, together with: fluorescein-labelled lamivudine 5 µM",baseline: labelled lamivudine alone,cellular uptake,7.1 fold
CC(=O)OC[C@H]1O[C@@H](Sc2sc(C(=O)c3ccc(Br)cc3)c(N)c2-c2nc3ccccc3s2)[C@H](OC(C)=O)[C@@H](OC(C)=O)[C@H]1OC(C)=O,Huh7.5,cytotoxicity,,72 h,,maximum non-toxic concentration,90 µg/mL
COc1cc2c(CCNC(C)=O)c[nH]c2cc1OS(=O)(=O)O,parental MDCK-II cells,,,"8 µM, 4 h, together with: Ko143 1 µM",,efflux ratio,0.97 ± 0.01
CCOC(=O)[C@@H](C)NP(=O)(CO[C@H](CF)CN1CNC(N)=NC1=O)N[C@H](C)C(=O)OCC,HEL,cell morphology,,,,minimum cytotoxic concentration,> 100 µM
CCCCn1cc(C(=O)O)c(=O)c2cc(F)c3c(nnn3-c3ccc(OC)cc3)c21,A375-S2,"cell growth or viability, SRB",,,,IC50,96.1 µM
COc1cc2c(CCNC(C)=O)c[nH]c2cc1O,parental MDCK-II cells,,,"10 µM, 4 h",,efflux ratio,1.42 ± 0.35
CC(=O)O[C@@H]1[C@@H](OC(C)=O)[C@H](Sc2sc(C(=O)c3ccc(Br)cc3)c(N)c2-c2nc3ccccc3s2)OC[C@@H]1OC(C)=O,Huh7.5,cytotoxicity,,72 h,,maximum non-toxic concentration,90 µg/mL
COc1cc(O)cc2c1-c1ccc(O)c(OC)c1CC2,BV-2,"cell growth or viability, MTT",,"20 µM, 24 h",,viability,98.8%
CCCCCCCCCCCCCC(=O)NCCCC[C@H](NC(=O)[C@H](CCCNC(=N)N)NC(=O)[C@H](CCCCNC(=O)CCCCCCCCCCCCC)NC(C)=O)C(=O)O,CCRF-CEM,flow cytometry,,"50 µM, 2 h, 37 °C, serum-free medium, together with: fluorescein-labelled lamivudine 5 µM",baseline: labelled lamivudine alone,cellular uptake,2.5 fold
CC(C)OC(=O)[C@H](Cc1ccccc1)NP(=O)(COCCn1cnc2c(=O)[nH]c(=O)[nH]c21)N[C@@H](Cc1ccccc1)C(=O)OC(C)C,HEL,cell morphology,,,,minimal cytotoxic concentration,> 100 µM
CCCCn1cc(C(=O)O)c(=O)c2cc(F)c(Nc3cc(OC)c(OC)c(OC)c3)c([N+](=O)[O-])c21,MCF7,"cell growth, SRB",,72 h,,IC50,39.1 ± 5.1 µg/mL
COc1ccc(-c2coc3cc(O)cc(O)c3c2=O)cc1,HEL,cell growth or viability,,72 h,,CC50,200 µM
CCOC(=O)c1cc(-c2nc3ccccc3s2)c(=O)n(NS(=O)(=O)c2ccccc2)c1N,Huh7.5,trypan blue,,72 h,,maximum non-toxic concentration,100 µg/mL
CCC1(C)CCN(Cc2cc(N(C)C)c3c(c2O)C(=O)C2=C(O)[C@]4(O)C(=O)C(C(N)=O)=C(O)[C@@H](N(C)C)[C@@H]4C[C@@H]2C3)CC1,COS,"cytotoxicity, resazurin",,10% fetal calf serum,,TC50,> 100 µg/mL
